Published values from different studies.
Each numbered part is a random draw from the data of one study; scales do not carry over between parts. Changes are numbered by the printed parent chain.

Set 1 — technique: RNA Bind-n-Seq; molecule type: RNA; sample: in vitro; tested at: 100 nM; relative to: input RNA pool; reading: higher = stronger binding
Target: RING finger protein unkempt homolog, zinc fingers 1-6, SBP tag (UNK, Homo sapiens, UniProt Q9C0B0, residues 30-357)
UniProt Q9C0B0, sequence (30-357, looked up): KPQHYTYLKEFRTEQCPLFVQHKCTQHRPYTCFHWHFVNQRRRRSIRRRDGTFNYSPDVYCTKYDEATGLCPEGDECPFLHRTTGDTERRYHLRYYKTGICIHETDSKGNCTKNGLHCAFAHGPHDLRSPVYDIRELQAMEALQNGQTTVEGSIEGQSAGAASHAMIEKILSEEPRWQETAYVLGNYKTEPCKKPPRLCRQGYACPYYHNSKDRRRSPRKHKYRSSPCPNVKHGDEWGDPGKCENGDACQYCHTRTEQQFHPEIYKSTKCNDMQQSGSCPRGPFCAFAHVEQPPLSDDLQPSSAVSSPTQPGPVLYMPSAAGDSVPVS
Setting: RNA with constant flanks, vertebrate orthologous sites, ends assumed
Shared flanks, not repeated: GGGAGUUCUACAGUCCGACGAUC … CAACAGAGGAUUGAGCAUCA
The bound/input enrichment of `CAGGGAAAAGAGCUCACAAACUCAAAGGAAACUAUUCAAGAGUUUCUAAUAGUCAAAAGCUAGGAAAGAUUAGGACAAUUGUACAAAUGAGCAAUUAAAAAGAAAACAAAAGAAAAAGGU` is reported as 0.725 ratio.
With `GGCGAGGCUGGGCUCCUGCUCACUGCCCACUCCUGCAUCCUGUCCUUCACUCCCCAUCACACAGCUCUGUGAGCAUGAAGUGCGUGGAGUUUGUGUGAAAUGGAACUGCCACCCAAGCCC` the bound/input enrichment was 0.758 ratio.
`CCUAUCCUUGUUACUGUGAUAUUUAAAAUAUCCACAGUACUCACUUUUCCCAAAUGAUUCUAGUAAUUGCCUAGAAAUAUCUUUCUUUUACAUGUUAUUUAUCAAUUUUACCAGUAUUUU` gave a bound/input enrichment of 0.862 ratio.
`UCUACUGACCACUCACUAUUAUGUCUGGAUAUCUGUAAACACUUUUCUUUUUCUUCUUAGUCUUUUUCUUGUAUAAUUGAUGUUCUCUUAAAAUUGUUAAUGUAUCACAGGGCCGCUCUU` has a bound/input enrichment of 1.92 ratio.
The bound/input enrichment of `ACGCUUUGACGUUAAGUUCACCGUGAACUCGUGACCCCAGGCACGAUGAGCGCACAAAAAAAAAACAACGUAGAAAGAUAUUCAAGAGUUCAGAUUGAAAAAAAACAAAAACACACAAAA` is reported as 0.245 ratio.
With `GCAGUGAAAAAGCAGCCCUUCUCCCAACCCCUUUUUCACUAGGAGAUACAAACAUUACCAUAGAAGAGCAAUUAAAUUCAAUAAAUUUAUCUUUUCAGGAUGAUCCAGACUCCAGCACCA` the bound/input enrichment was 1.16 ratio.
For `GUUGUGACCCCUUUAACAUACAUAAAAAACUAGCCAAAAAAAACUUGCAUGUAAUUGACUUAGAUGAUGCCACUUUUCUGAGUGCAAAAUUUGGCAGACAGCUUGUACCUGGUUGGAAGC`, the bound/input enrichment was 0.99 ratio.
With `UUAAAGUCAUUUUUUUCAUGUUUCCUGUAAAUAAUGGAUAAUCAUUUUUAUUUUAUUUUUAAGUGCUGUUUUAACAAUGUGGAUAGACCAUAAAUGUACUUGCUGAAUUCAUUCAUUUUU` the bound/input enrichment was 0.286 ratio.
`AAAUUUAUUUCAUGCCCUGGACGCCAUAUCGCACUGAUACUUUAAUAGAAUAUGCUUCUUUAGAAGAUUUUCAAAACAGCCGACAAACAACAACAUACAAACUUCCAAAUCGAGUAGAUG` gave a bound/input enrichment of 1.35 ratio.
The bound/input enrichment of `UUCUAGUACUUAAGCCAAUAGUUCUAAAAUGCUAUUUAUUUGUGUCUGUAAGUUUGUACAUAGUAAUUCCAGCCUCGUUGCGGAAUUAUUUUUUCAUGCAUUUGAGUUUUGCUUGAAAUU` is reported as 0.393 ratio.
The bound/input enrichment of `UGAGUGAGAGAUUCCUGUGCUUUCUCAUAUUUAAUUUGCUCUUUUUAAGAUAUUCCAACCUAGAGUUUUUGAUGGAACUGAUAUAUUGACAAUUCUCAUCUAAGUCCUUUUAUAAAGAAU` is reported as 0.617 ratio.

Set 2 — technique: protein binding microarray; molecule type: double-stranded DNA, one strand shown; sample: in vitro; tested at: not given; relative to: not given; reading: higher = stronger binding
Target: Histone acetyltransferase KAT6A, winged helix 2, GST fusion (KAT6A, Homo sapiens, UniProt Q92794, residues 85-181)
Setting: 8-mer, flanks averaged, mean of 2 arrays, mostly near background
Residues (chain): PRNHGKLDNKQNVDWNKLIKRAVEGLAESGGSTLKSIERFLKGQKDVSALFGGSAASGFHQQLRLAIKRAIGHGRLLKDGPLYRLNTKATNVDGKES
The E-score of `AAGCCTGA` is reported as 0.0158.
For `CACTATCA`, the E-score was -0.148.
The E-score of `AGGCACCT` is reported as -0.0704.
The E-score of `ATCTACAG` is reported as 0.012.
For `ACTATATA`, the E-score was -0.109.
For `GTTCCAAA`, the E-score was 0.074.
With `CGTGCGGC` the E-score was 0.151.
`GAAGCCAA` has an E-score of 0.0404.
`CCTGTAGC` gave an E-score of -0.206.
The E-score of `AAACTTTG` is reported as 0.0778.
With `CAAGCCAG` the E-score was 0.098.
For `TACGCCGA`, the E-score was -0.108.
The E-score of `CGACTATC` is reported as -0.0399.
`CCGGGCTC` gave an E-score of 0.141.
`ACCAATAT` gave an E-score of -0.0209.
With `AATACCTG` the E-score was -0.11.
`ATCTGAAA` has an E-score of 0.0992.
`CTATAGCA` gave an E-score of -0.0166.
`AGGGTGAC` has an E-score of 0.0901.
For `CTTATTAA`, the E-score was 0.0535.
The E-score of `TAAGGAAA` is reported as -0.0723.
With `TAGCCAGA` the E-score was -0.02.

Set 3 — technique: RNA Bind-n-Seq; molecule type: RNA; sample: in vitro; tested at: 365 nM; relative to: no-protein control; reading: higher = stronger binding
Target: RNA binding protein fox-1 homolog 2, RRM domain, GST-SBP tag (RBFOX2, Homo sapiens, UniProt O43251-10, residues 100-194)
Setting: natural RNA segment, single round, ends assumed
Shared flanks, not repeated: GGGAGUUCUACAGUCCGACGAUC … UGGAAUUCUCGGGUGCCAA
Construct (chain): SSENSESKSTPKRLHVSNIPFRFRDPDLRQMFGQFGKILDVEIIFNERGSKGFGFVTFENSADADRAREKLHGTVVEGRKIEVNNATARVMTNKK
`UUUUCAUAGUUGGUUCCUGGAGGUGUGCCAAGUGCCCGCUUGCCUCUUCUAGACCCACAGCUUCUUGAUCCACUUGUGGUUUCCAUGUCACUAAUGUAGAAACAUCAUGG`: “RBNS enrichment (R)” 0.295.
Under “RBNS enrichment (R)”, `UGCUGUUUUCAAAUGAAGCCGUGUGGAUAUUUCAGCGUGCUGCUCCCUGUUGUCUGGAAACAGUUGAGUUGGAGCCUGUUGCCAAUGCUGCCCUCUGCCACCCUGUGGCU` is recorded as 0.613.
For `AAAAAAUGGAGUGAUAUUUAAAAAUGCCAUCGAUGGUGGGGAUCUUACUGGGGAAGAGGAAGGACCAUUAGCACACCAUCAUGAUGUCAGAUGACAAAAUGGAAGCCAAG`, “RBNS enrichment (R)” read 0.928.
For `CCCAAGCCCUAACAGGCCUUCACUCUCUUGAUAGUCUUUCCUUUACAGUCAAGGACUACGUUAAAGGUCUCUGGAGAGAGUAUAAAGAGAUUAUUUUUCAUCGUUUUUAA`, “RBNS enrichment (R)” read 0.326.
Under “RBNS enrichment (R)”, `UAGGCUUGCUAAUUGAUAACUGCAGCAGUUUGUGUUUACUCCAGUUCAUCAGCUUAGGUCAUUUGAAAGAUAUAAGAGCUUAAGGCAAGAAAGAAAUAACAUGGAAUUCU` is recorded as 1.21.
Under “RBNS enrichment (R)”, `CAAUCAAGUUGGCAAAUGACACAGGGAGCUGGCCCUCUGACCAUCUUCCUGGCAAACCUGGACUGGAAGGGCCAUUUGCAGCACUGUCCUGGAGCUAAUACACUGUUUCA` is recorded as 0.317.
`CUUCUGUCUGACACCAUCUCCCUUUCGGCCUGAAGGUUUCAGAGAGGGUGCUCUGGGCUGGAGGGAGCAGGGACACUCUCAGCCAAAUGGAGCAGUGGGGAGACACCAGG` — result for “RBNS enrichment (R)”: 0.561.
`CUUUCUGAUGAUUUAAACUUUGCAGUUUACUUUUUCAUCCUGUAUGAGAAGUACUAAGUAAGUUUAGGACAUUUGGGGUUCCUUUUUCCCUUCUAAAGUGAAAGUGAUGU`: “RBNS enrichment (R)” 0.304.
For `UCUUUUGCCGUCUAGGCCCAGCCAGGCUUUUCUGACUAAAUAAGCAAUAAGAGGCUCUAAGCUGACUGAGUUGCAAGGACCCUUUCCGCCCUCCCUUGGAUCUCCAUGUU`, “RBNS enrichment (R)” read 0.23.
For `UGACCGUGGCUGGCGGUCACGCCCUCAGCCCCUCCGGGCACACGUGCCGCCUGACCGGGCGACCCUUUUCAGUUCGGCAAACGUCGCUCCCUUCAUUUUGGGACUGAGGC`, “RBNS enrichment (R)” read 0.265.
`CAGUGUAGUCUCAAUUAUAUCUGAAAGUAAUUGUGACUAACAAGUAUGCUUUGCCUUAUUUCCACAUUUAAACUACCUGUUAAUAUAAGGGAUUUGUAGUAUCAGCUUGU`: “RBNS enrichment (R)” 0.37.
Under “RBNS enrichment (R)”, `UCCCGUCAUCUGUUGGCUUCAGGAGGACUGCCAUAAAGUCCCAUUGACAUUUACUCUUAUGUCUUUCUCUGGUCAUUCUGUUUUGUGGUACAAUCACCGUGUAAGUUAUG` is recorded as 0.626.

Set 4 — target: FOS, bZIP domain (human); technique: DHFR protein complementation; sample: yeast; relative to: wild-type JUN-FOS pair; reading: higher = stronger binding
Setting: single substitutions, most at no-binding floor
Parent: JUN, bZIP domain (human); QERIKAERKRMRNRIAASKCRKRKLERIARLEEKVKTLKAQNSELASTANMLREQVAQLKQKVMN; partner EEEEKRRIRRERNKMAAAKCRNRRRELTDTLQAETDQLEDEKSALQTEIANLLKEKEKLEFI
The binding fitness of `M51P` is reported as -1.37 natural log.
With `Q58S` the binding fitness was 0.0442 natural log.
`Q41N` has a binding fitness of -0.318 natural log.
`E33L` has a binding fitness of -0.131 natural log.
`A57P` has a binding fitness of -1.3 natural log.
The binding fitness of `L31A` is reported as -0.153 natural log.
For `L52W`, the binding fitness was -1.22 natural log.
With `V35P` the binding fitness was -1.21 natural log.
The binding fitness of `E33K` is reported as -0.244 natural log.
`T37S` gave a binding fitness of -0.0187 natural log.
For `N42A`, the binding fitness was -0.603 natural log.
With `A29I` the binding fitness was -0.137 natural log.
`Q41A` gave a binding fitness of -0.199 natural log.
The binding fitness of `E44V` is reported as -0.0788 natural log.
For `A49H`, the binding fitness was -0.964 natural log.
With `N42T` the binding fitness was -0.109 natural log.
For `Q55I`, the binding fitness was -0.024 natural log.
`S47K` gave a binding fitness of 0.132 natural log.
`L38A` has a binding fitness of -0.874 natural log.
With `K36H` the binding fitness was -0.153 natural log.
The binding fitness of `A57K` is reported as -0.0396 natural log.
`N42V` gave a binding fitness of 0.182 natural log.
`T37W` has a binding fitness of -0.17 natural log.

Set 5 — target: CCNB2, cyclin fold, Cln2 fusion (human); technique: yeast growth competition, sequencing; sample: yeast; setting: weak parent motif; relative to: not given; reading: higher = stronger binding
Parent: E2F3 docking peptide (human); PPAKRRLELGESG; partner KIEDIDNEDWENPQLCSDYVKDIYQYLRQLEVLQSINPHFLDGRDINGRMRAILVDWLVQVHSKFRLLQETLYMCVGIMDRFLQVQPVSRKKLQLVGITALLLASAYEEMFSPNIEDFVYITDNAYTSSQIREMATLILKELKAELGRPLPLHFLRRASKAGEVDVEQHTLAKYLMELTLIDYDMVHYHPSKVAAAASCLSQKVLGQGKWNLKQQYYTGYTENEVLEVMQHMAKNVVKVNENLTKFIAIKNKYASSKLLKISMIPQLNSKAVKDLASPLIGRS
`R5A`: “normalised enrichment score” 0.402.
For `R5K L9F`, “normalised enrichment score” read 0.398.
`L7A`: “normalised enrichment score” 0.344.
Under “normalised enrichment score”, `S12A` is recorded as 0.573.
For `R6A`, “normalised enrichment score” read -0.0752.
`R5K` — result for “normalised enrichment score”: -0.048.
For `E8A`, “normalised enrichment score” read -0.132.
`R5A L7A` — result for “normalised enrichment score”: 0.123.
Under “normalised enrichment score”, `P1A` is recorded as 0.517.

Excerpt of the above (set 5):
`R5A`: “normalised enrichment score” 0.402.
For `R5K L9F`, “normalised enrichment score” read 0.398.
`L7A`: “normalised enrichment score” 0.344.
Under “normalised enrichment score”, `S12A` is recorded as 0.573.
For `R6A`, “normalised enrichment score” read -0.0752.
`R5K` — result for “normalised enrichment score”: -0.048.
For `E8A`, “normalised enrichment score” read -0.132.
`R5A L7A` — result for “normalised enrichment score”: 0.123.
Under “normalised enrichment score”, `P1A` is recorded as 0.517.
